{"data": "Results collected from several papers", "note": "Compare with care: the assays were run in different laboratories. “And” joins repeats or separate records; there may be more than shown. ± gives the spread as reported.", "chain of UniProt P04062 (whole entry, unmodified, looked up)": "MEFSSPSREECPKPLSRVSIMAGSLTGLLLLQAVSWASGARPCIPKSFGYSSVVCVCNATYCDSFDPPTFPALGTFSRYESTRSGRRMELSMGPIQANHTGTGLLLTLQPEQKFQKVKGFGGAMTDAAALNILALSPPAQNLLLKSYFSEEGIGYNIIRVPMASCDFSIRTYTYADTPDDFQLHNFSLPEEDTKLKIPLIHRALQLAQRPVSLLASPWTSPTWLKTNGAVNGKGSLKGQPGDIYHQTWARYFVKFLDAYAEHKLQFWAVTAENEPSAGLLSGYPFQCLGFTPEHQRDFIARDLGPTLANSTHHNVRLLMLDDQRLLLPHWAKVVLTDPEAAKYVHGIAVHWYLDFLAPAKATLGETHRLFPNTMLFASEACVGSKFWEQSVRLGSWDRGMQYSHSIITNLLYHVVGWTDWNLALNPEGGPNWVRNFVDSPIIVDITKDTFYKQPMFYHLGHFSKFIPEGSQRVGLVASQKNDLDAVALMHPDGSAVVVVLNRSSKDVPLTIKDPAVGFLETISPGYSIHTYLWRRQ"}
{"Structure (SMILES)": "C/C(N)=N/C(=N\\S(=O)(=O)c1ccc(C(F)(F)F)cc1)N1C[C@H](c2ccccc2)C(c2ccc(Cl)cc2)=N1", "test system": "male C57BL/6 mouse, liver", "setting": "intravenous, 10 mg/kg", "endpoint": "half-life", "result": "2.6 h"}
{"Structure (SMILES)": "Cc1nc(N)nc2c1C(=O)N[C@@H](c1ccc(F)cc1-c1cccc(O[11CH3])n1)C2", "assay": "ex vivo biodistribution", "test system": "mice, MDA-MB-231 subcutaneous xenograft, intestines", "setting": "60 min post-injection, baseline, vehicle pre-treatment", "endpoint": "tracer uptake", "result": "19.9 ± 0.3 %ID"}
{"Structure (SMILES)": "N#C[C@@H]1CC(F)(F)CN1C(=O)CNC(=O)c1ccnc2c(NC(=O)[C@H](CCCCNC(=O)CCOCCOCCOCCOCCOCCOCCNC(=O)CN3CCN(CC(=O)[O-])CCN(CC(=O)[O-])CCN(CC(=O)[O-])CC3)NC(=O)CCCc3ccc(I)cc3)cccc12.[177Lu+3]", "test system": "U-87 MG tumour-bearing mice, blood", "setting": "dose not given, 4 h post-injection, biodistribution", "endpoint": "blood radioactivity", "result": "6.43 ± 3.23%"}
{"Structure (SMILES)": "OC[C@@H]1[C@@H](O)[C@H](O)[C@@H](O)CN1CCCCCOCCC12CC3CC(CC(C3)C1)C2", "tested on": "Lysosomal acid glucosylceramidase (GBA1, Homo sapiens, UniProt P04062, R534H)", "assay": "inhibitor, 4MU-β-D-glucopyranoside", "setting": "added: 4MU-β-D-glucopyranoside", "endpoint": "IC50", "result": "190 nM"}
{"Structure (SMILES)": "O=C(Nc1cccc(CO)c1)c1cc(-c2ccccc2)n(-c2ccccc2)n1", "test system": "rat liver microsomes", "setting": "4 h", "endpoint": "depletion", "result": "< 30%"}
{"Structure (SMILES)": "CN1CCCNC(=O)c2cccc(c2)C(=O)NCCCN(C)CCCNc2cccc3c2C(=O)c2cccc(c2C3=O)NCCC1", "test system": "mouse xenograft model", "setting": "dose not given, day 10", "endpoint": "body weight", "result": "27 g and 29 g"}
{"Structure (SMILES)": "CC(C(=O)O)n1nc(Cn2cc3cc(OCC[18F])c(Cl)cc3n2)c2ccccc2c1=O (racemic)", "test system": "rat, kidney", "setting": "5 min", "endpoint": "tracer uptake", "result": "3.93 %ID/g"}
{"Structure (SMILES)": "O=C(Nc1cnccc1-c1ccc([18F])cc1)c1ccnc(NC(=O)C2CC2)c1", "test system": "mice, transgenic, GSK-3β, early-stage, skin", "setting": "intravenous, dose not given, 120 min", "endpoint": "SUV", "result": 0.11}
{"Structure (SMILES)": "O=C(C1=C[C@H](C2CCCCC2)C[C@H](OCCCCO)O1)N1CCN(Cc2ccc3c(c2)OCO3)CC1", "tested on": "Trypanosoma cruzi", "assay": "reporter mRNA translation, inhibitor, refers to: Renilla luciferase mRNA", "test system": "cell-free extract", "setting": "concentration not given", "how to read": "baseline: positive over negative control", "endpoint": "translation activity", "result": "138% and 93.5%"}
{"Structure (SMILES)": "CCCCN1C(=O)c2cccc3c(NCCCCCN4CCOCC4)ccc(c23)C1=O", "test system": "chloroform", "endpoint": "fluorescence lifetime", "result": "9.4 ns"}
{"Structure (SMILES)": "Cc1nn(-c2nc3c(F)cc(F)cc3s2)c(O)c1C(c1ccc(C(F)(F)F)cc1)c1c(C)nn(-c2nc3c(F)cc(F)cc3s2)c1O", "test system": "ICR mouse, plasma", "setting": "oral, 50 mg/kg", "endpoint": "apparent terminal volume of distribution (Vz/F, observed)", "result": "0.65 L/kg and 1.11 L/kg and 0.569 L/kg"}
{"Structure (SMILES)": "C#CC(C)(C)C(=O)SCCOP1(=O)OCC2OC(n3cnc4c(N)ncnc43)CC2OP(=O)(OCCSC(=O)C(C)(C)C#C)OCC2OC(n3cnc4c(N)ncnc43)CC2O1 (stereo not shown)", "test system": "non-tumor-bearing mice, blood", "setting": "intravenous, 1 mg/kg, toxicity study", "endpoint": "RDW-CV", "result": "12.33 ± 0.1%"}
{"Structure (SMILES)": "C=CC(=O)Nc1cc(Nc2nccc(-c3cn(C)c4ccccc34)n2)c(OC)cc1N(C)CCNC", "assay": "storage stability", "test system": "human dried blood spot", "setting": "30 d, on ice, MQC level", "endpoint": "recovery", "result": "58.1%"}
{"Structure (SMILES)": "C=C(NC(=O)c1csc(-c2nc3c(cc2O)-c2nc(cs2)C(=O)NC(C(C)O)C(=O)NC(=C(C)OC)c2nc(cs2)C(=O)NC2c4nc(cs4)C(=O)NC(COC(=O)c4c5c6c(cccc6n4O)COC(=O)C(OC4CC(C)(O)C(N(C)C)C(C)O4)C2OC5)c2nc-3cs2)n1)C(N)=O (stereo not shown)", "test system": "Sprague-Dawley rat, male, plasma", "setting": "intravenous infusion, 18 mg/kg single dose", "endpoint": "MRT(0-last)", "result": "2.36 h"}
{"Structure (SMILES)": "CNc1cc(N)c(C(N)=O)cn1", "test system": "Han Wistar rats, male, plasma", "setting": "oral, 30 mg/kg, 3.00 h", "endpoint": "concentration at time", "result": "8.01 µM"}
{"Structure (SMILES)": "CN1CCC[C@]1(C)/C=C/S(=O)(=O)NC(=O)Nc1c2c(cc3c1C(O)CC3)CCC2 (stereo partly shown)", "test system": "human, plasma", "setting": "oral, 100 mg twice daily of parent drug, day 14, metabolite of dosed drug", "endpoint": "Cmax at second steady-state dose", "result": "20400 ng/mL"}
{"Structure (SMILES)": "Cc1c(Cc2cccc(OC(C)(C)C(=O)O)c2)c2ccc(C(=O)N[C@@H](C)c3cccc(C(C)(C)C)c3)cc2n1CC1CCC1", "test system": "mouse liver microsomes", "setting": "1 µM, added: microsomes 1 mg/mL", "endpoint": "half-life", "result": "0.8 h"}
{"Structure (SMILES)": "CCN(Cc1ccc(C#CCCO)cc1)CC1CCCN(CCc2cccc(F)c2)C1 (stereo not shown)", "tested on": "Trypanosoma cruzi", "assay": "reporter mRNA translation, inhibitor, refers to: capped polyadenylated Renilla luciferase mRNA", "test system": "cell-free extract", "setting": "concentration not given", "how to read": "baseline: control RNA", "endpoint": "relative translation", "result": "121%"}
{"Structure (SMILES)": "CN(C)S(=O)(=O)c1ccc(S(=O)(=O)N2CCC(n3c(=O)[nH]c4ccccc43)CC2)cc1", "test system": "mouse", "setting": "intraperitoneal, 6 mg/kg, 4 day", "how to read": "baseline: day 0", "endpoint": "body weight", "result": "99.6%"}
{"note": "Some of these lines once more:"}
{"Structure (SMILES)": "CN(C)S(=O)(=O)c1ccc(S(=O)(=O)N2CCC(n3c(=O)[nH]c4ccccc43)CC2)cc1", "test system": "mouse", "setting": "intraperitoneal, 6 mg/kg, 4 day", "how to read": "baseline: day 0", "endpoint": "body weight", "result": "99.6%"}
{"Structure (SMILES)": "CN1CCCNC(=O)c2cccc(c2)C(=O)NCCCN(C)CCCNc2cccc3c2C(=O)c2cccc(c2C3=O)NCCC1", "test system": "mouse xenograft model", "setting": "dose not given, day 10", "endpoint": "body weight", "result": "27 g and 29 g"}
